Measured values collected from several papers.
Compare with care: the assays were run in different laboratories. ± gives the spread as reported.

O=C(CCc1ccccc1)N[C@H]1CNC1=O
compound remaining (chemical stability; PBS; 1 µM, 24 h, pH 7.4): 92%

Cc1ccc(NC(=O)c2ccc(CN3CCNCC3)cc2)cc1Nc1nccc(-c2cccnc2)n1
volume of distribution (human, plasma; 400 mg/day imatinib, day 14 of cycle 1, metabolite of imatinib, mean, with: IL-2 6 MIU/day days 10-14): 532 L

COc1cc2nccc(Oc3ccc(NC(=O)C4(C(=O)Nc5ccc(F)cc5)CC4)cc3)c2cc1OC
right ventricular systolic pressure (male Sprague-Dawley rat, hypoxic pulmonary hypertension; subcutaneous, 20 mg/kg, 28 days post-hypoxia, 3 weeks hypoxia): 36.2 ± 3.4 mmHg

Cc1ccc(NC(=O)CSc2nnc(Cn3cnc4c3c(=O)n(C)c(=O)n4C)n2-c2ccccc2)cc1C
haemolysis (bovine erythrocytes; 1 mg/mL, 30 min, pH 7.4, 37 °C): 3.9%

CCCC[C@@H]1NC(=O)[C@@H](NC(=O)[C@H](CCC(=O)O)NC(=O)CNC(=O)CN2CCN(CC(=O)O)CCN(CC(=O)O)CCN(CC(=O)O)CC2)CCCCNC(=O)C[C@@H](C(N)=O)NC(=O)[C@H](C(C)C)NC(=O)[C@@H]2CCCN2C(=O)[C@H](CCCNC(=N)N)NC(=O)CNC(=O)[C@H](Cc2c[nH]c3ccccc23)NC(=O)[C@H](CCCNC(=N)N)NC(=O)[C@@H](Cc2ccccc2)NC(=O)[C@H](Cc2c[nH]cn2)NC(=O)[C@H](CCC(=O)O)NC1=O [indium-111 labelled]
lung to tissue ratio (refers to: liver; C57 mice; intravenous, 0.037 MBq, 2 h): 0.2

CC[C@H](C)[C@H](NC(=O)[C@H](Cc1ccccc1)NC(=O)[C@H](CCC(=O)O)NC(=O)[C@H](CCCCNC(=O)COCCOCCNC(=O)COCCOCCNC(=O)CC[C@H](NC(=O)CCCCCCCCCCCCCCCCC(=O)O)C(=O)O)NC(=O)[C@H](C)NC(=O)[C@H](C)NC(=O)[C@H](CCC(N)=O)NC(=O)CNC(=O)[C@H](CCC(=O)O)NC(=O)[C@H](CC(C)C)NC(=O)[C@H](Cc1ccc(O)cc1)NC(=O)[C@H](CO)NC(=O)[C@H](CO)NC(=O)[C@@H](NC(=O)[C@H](CC(=O)O)NC(=O)[C@H](CO)NC(=O)[C@@H](NC(=O)[C@H](Cc1ccccc1)NC(=O)[C@@H](NC(=O)CNC(=O)[C@H](CCC(=O)O)NC(=O)C(C)(C)NC(=O)[C@@H](N)Cc1cnc[nH]1)[C@@H](C)O)[C@@H](C)O)C(C)C)C(=O)N[C@@H](C)C(=O)N[C@@H](Cc1c[nH]c2ccccc12)C(=O)N[C@@H](CC(C)C)C(=O)N[C@H](C(=O)N[C@@H](CCCNC(=N)N)C(=O)NCC(=O)N[C@@H](CCCNC(=N)N)C(=O)NCC(=O)O)C(C)C
average steady-state concentration (human lowest body weight; 1.0 mg once weekly, 39.7-60.2 kg): 43.6 nmol/L

CC[C@H](C)[C@@H]1NC(=O)[C@H](Cc2ccc(O)cc2)NC(=O)[C@@H](N)CSSC[C@@H](C(=O)N2CCC[C@H]2C(=O)N[C@@H](CC(C)C)C(=O)NCC(N)=O)NC(=O)[C@H](CC(N)=O)NC(=O)[C@H](CCC(N)=O)NC1=O
half-life (microdialysis, radioimmunoassay; C57BL/6J male mice, wild type, hippocampus extracellular fluid; intranasal, 12 µg, time to half of Cmax): 14.6 ± 4.2 min

Cc1nc2cccc(OCC(C)(C)C(=O)NC(C)C)c2c(N)c1C(=O)O
Tmax (female Sprague-Dawley rat, plasma; oral gavage, 30 mg/kg, day 7): 15 min

CNCc1ccc(-c2[nH]c3cc(F)cc4c3c2CCNC4=O)cc1
Cmax (human patients, plasma; oral, 300 mg once daily, day 1, single dose, arithmetic mean): 629 ng/mL

CC(C)C[C@H](NC(=O)[C@H](CC(C)C)NC(=O)[C@@H](Cc1c[nH]c2ccccc12)NC(=O)[C@@H](NC(=O)[C@@H](Cc1c[nH]c2ccccc12)NC(=O)[C@@H](N)CCCCN)[C@H](c1ccccc1)c1c[nH]c2ccccc12)C(N)=O
HPLC retention (RP-HPLC Kinetex Biphenyl; acetonitrile/water TFA gradient): 47.5 %B

COc1ccc(NC(=O)N2CCCCN3[C@H](CN(C)C)[C@H](c4ccc(C#Cc5ccccc5)cc4)[C@@H]3C2)cc1
Tmax (CD-1 mice, brain; oral, 10 mg/kg): 480 min

NC(=O)CC[C@@H]1NC(=O)[C@H](Cc2ccccc2)NC(=O)[C@H](Cc2ccc(O)cc2)NC(=O)CCSSC[C@@H](C(=O)N2CCC[C@H]2C(=O)N[C@H](CCCN=C(N)N)C(=O)NCC(N)=O)NC(=O)[C@H](CC(N)=O)NC1=O
stock solution stability (UPLC-MS/MS; water; 0.1 mg/mL, 15 days, 2-8 °C; relative to: fresh stock solution): 104%

O=C1c2cccc3c2[C@H](CCC3)CN1[C@@H]1CN2CCC1CC2
time to first quantifiable plasma level (human, plasma; oral, dose not given): ≤ 1 h

O=C1N=C(N2CCOCC2)CN1c1ccc(Cl)cc1
fraction excreted in faeces (refers to: total radioactivity; beagle dog, male; oral, 20 mg/kg, 0 to 264 h; relative to: dose): 78%

CCN(c1cc(-c2ccc(CN3CCOCC3)cc2)cc(C(=O)NCc2c(C)cc(C)[nH]c2=O)c1C)C1CCOCC1
discontinuation rate (Japanese patients, relapsed or refractory B-NHL; oral, 800 mg twice daily, tongue squamous cell carcinoma, not treatment related; relative to: patients): 14.3%

O=C(Nc1c(Cl)c[n+]([O-])cc1Cl)c1ccc(OC(F)F)c(OCC2CC2)c1
Ctrough (human patients, age 6-11 years, plasma; topical, 0.3% cream once daily, week 8): 4.3 ng/mL

CC(=O)Nc1cccc(NC(=O)C(=O)NCCc2sc(-c3ccc(C)cc3)nc2C)c1
cardiac function (refers to: heart rate, LV pressure, rhythm; Langendorff-perfused mouse heart; 0.08 to 1.6 µM, 5 min each): no effect

COc1ccc(-c2oc3c(OC)c(OC)c(OC)c(O)c3c(=O)c2OC)cc1OC
tissue to peel content ratio (C57BL/6 mouse, male, feces; oral, 1% w/w in diet, 6 weeks, orange peel extract diet; relative to: content in orange peel): 101%

CCN(CC)CCNC(=O)c1c(C)[nH]c(/C=C2\C(=O)Nc3ccc(F)cc32)c1C
maximum trough plasma concentration (human, plasma; oral, 15 mg/m2, day 28): 69.7 ng/mL

COc1ccc2cc3[n+](cc2c1OC)CCc1cc2c(cc1-3)OCO2
measured concentration (rat plasma QC sample; 32 ng/mL nominal, 24 h, 23 °C, medium QC level storage stability): 31 ± 1.85 ng/mL

Cc1cc(Nc2cc3ncccc3c(N[C@@H]3C[C@H]4CC[C@@H](C3)N4CCC#N)n2)n[nH]1
tissue/plasma ratio (Balb/c mouse, male, colon; oral, 10 mg/kg, AUC(0-24 h) based; relative to: colon over plasma): 3880

CS(=O)(=O)n1cc2c(n1)CN([C@H]1CO[C@H](c3cc(F)ccc3F)[C@@H](N)C1)C2
concentration at 168 h (healthy male human, plasma; oral, 50 mg single, fasted, geometric mean): 26.7 nM

C[C@]12CC[C@@H]3c4ccc(O)cc4CC[C@H]3[C@@H]1C[C@@H](O)[C@@H]2O
median serum concentration (GC-MS; breast cancer women on NSAI, serum; vaginal, 0.03 mg, 8 h, day 0): 0 ng/mL

CC(C)=CCC[C@](C)(O[C@@H]1O[C@H](CO)[C@@H](O)[C@H](O)[C@H]1O)[C@H]1CC[C@]2(C)[C@@H]1[C@H](O)C[C@@H]1[C@@]3(C)CC[C@H](O[C@@H]4O[C@H](CO)[C@@H](O)[C@H](O)[C@H]4O[C@@H]4O[C@H](CO)[C@@H](O)[C@H](O)[C@H]4O)C(C)(C)[C@@H]3CC[C@]12C
AUC(0-36 h) (Sprague Dawley rat, male, plasma; oral, 42 mg/kg, in red ginseng extract): 13300 ± 4600 ng·h/mL

CSc1cc(C)nc(SC)c1NC(=O)CN1CCN(CCSc2nc3ccccc3[nH]2)CC1
concentration (mouse Crl:CD1 (ICR) female, olfactory bulb; intranasal repeated, 32.4 µg in 0.01 N HCl, 45 min): 6 ng/g

CN1CC(=O)NC1=N
dialysis clearance (in vitro haemodialysis; buffered aqueous solution; concentration not given, blood 50, dialysate 250 mL/min): 47 mL/min

CC(=O)O[C@@]12CO[C@@H]1C[C@H](O)[C@@]1(C)C(=O)[C@H](O)C3=C(C)[C@@H](OC(=O)[C@H](O)[C@@H](NC(=O)OC(C)(C)C)c4ccccc4)C[C@@](O)([C@@H](OC(=O)c4ccccc4)[C@H]21)C3(C)C
AUC(0-inf) (male Sprague-Dawley rat, plasma; intravenous, 10 mg/kg): 2640 ng·h/mL

CC(C)=CCC[C@](C)(O[C@@H]1O[C@H](CO[C@@H]2O[C@H](CO)[C@@H](O)[C@H](O)[C@H]2O)[C@@H](O)[C@H](O)[C@H]1O)[C@H]1CC[C@]2(C)[C@@H]1[C@H](O)C[C@@H]1[C@@]3(C)CC[C@H](O[C@@H]4O[C@H](CO)[C@@H](O)[C@H](O)[C@H]4O[C@@H]4O[C@H](CO)[C@@H](O)[C@H](O)[C@H]4O)C(C)(C)[C@@H]3CC[C@]12C
AUC(0-36 h) (Sprague Dawley rat, male, plasma; oral, 86 mg/kg, in white ginseng extract): 108000 ± 19500 ng·h/mL

CCCC[C@H](NC(C)=O)C(=O)N[C@H]1CCC(=O)NC[C@@H](C(=O)N[C@@H](Cc2c[nH]c3ccccc23)C(N)=O)NC(=O)[C@H](CCCNC(=N)N)NC(=O)[C@@H](Cc2ccccc2)NC(=O)[C@H](Cc2c[nH]cn2)NC1=O
Cmax (female rat, plasma; subcutaneous, 25 mg/kg/day, multiple doses, once daily): 1190 ng/mL

CN(Cc1cnc2nc(N)nc(N)c2n1)c1ccc(C(=O)N[C@@H](CCC(=O)O)C(=O)O)cc1
mean residence time (Sprague-Dawley rat; oral, 5.0 mg/kg): 4.79 ± 0.44 h

Cc1[nH]c(=O)c(CNC(=O)c2ccc(N(C)C)o2)c2c1CCCC2
kinetic solubility (U-HPLC; 20% DMSO in water): 97.4 µg/mL

N=C(N)c1ccc(OCCC(CCOc2ccc(C(=N)N)cc2)c2ccccc2)cc1 (stereo not drawn)
haemolysis (haemolysis; sheep; 200 µg/mL, 20 h): > 10%

COc1cc(OC)c(/C=C/S(=O)(=O)Cc2ccc(OC)c(NCC(=O)O)c2)c(OC)c1
Vss/F (cancer patients, phase I, plasma; oral, 280 mg twice daily, day 1 cycle 1): 498 ± 469 L

Cn1c(-c2ccc(C(N)=O)cc2F)nnc1C(C)(C)Oc1c(F)cc(Cl)cc1F
AUC(0-inf) median (young Japanese subjects, plasma; oral, 50 mg single dose, day 1): 8010 ng·h/mL

CCn1cc(-c2nc(C)no2)c(=O)c2cc(F)c(N3CCC(C)CC3)cc21
kinetic solubility (FaSSIF; 2 h, pH 6.5, 25 °C): 1.5 µM

OC[C@H]1O[C@@H](c2ccc(F)c(Cc3cc4ccccc4s3)c2)[C@H](O)[C@@H](O)[C@@H]1O
tissue/plasma ratio (Wistar rat, male, small intestine; oral, dose not given, 8 h; relative to: small intestine over plasma concentration): 348 ± 105

Some of these lines once more:
CN(Cc1cnc2nc(N)nc(N)c2n1)c1ccc(C(=O)N[C@@H](CCC(=O)O)C(=O)O)cc1
mean residence time (Sprague-Dawley rat; oral, 5.0 mg/kg): 4.79 ± 0.44 h

Cc1[nH]c(=O)c(CNC(=O)c2ccc(N(C)C)o2)c2c1CCCC2
kinetic solubility (U-HPLC; 20% DMSO in water): 97.4 µg/mL

N=C(N)c1ccc(OCCC(CCOc2ccc(C(=N)N)cc2)c2ccccc2)cc1 (stereo not drawn)
haemolysis (haemolysis; sheep; 200 µg/mL, 20 h): > 10%
